Results pooled from the literature.
Numbered parts are unrelated; each lists some results of a single study.

Study 1
Target: Histone acetyltransferase KAT6A, winged helix 1, GST fusion (KAT6A, Homo sapiens, UniProt Q92794, residues 1-85)
Technique: protein binding microarray
Form: double-stranded DNA, one strand shown
Matrix: in vitro
Tested at: not given
Setting: 8-mer, flanks averaged, mean of 2 arrays, mostly near background
Reference: not given
Reading: higher = stronger binding
Construct (chain): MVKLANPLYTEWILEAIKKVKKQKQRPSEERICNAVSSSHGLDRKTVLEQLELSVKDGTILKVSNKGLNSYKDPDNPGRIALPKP
`ACAAAGGG` has an E-score of -0.156.
`TGGAGACA` has an E-score of -0.162.
The E-score of `CTATTCAA` is reported as -0.138.
With `CACACCAA` the E-score was 0.0377.
For `CTCTCCAA`, the E-score was -0.127.

Study 2
Target: Sal-like protein 4, full length isoform A (SALL4, Homo sapiens, UniProt Q9UJQ4, residues 1-1053)
UniProt Q9UJQ4, sequence (whole entry, looked up): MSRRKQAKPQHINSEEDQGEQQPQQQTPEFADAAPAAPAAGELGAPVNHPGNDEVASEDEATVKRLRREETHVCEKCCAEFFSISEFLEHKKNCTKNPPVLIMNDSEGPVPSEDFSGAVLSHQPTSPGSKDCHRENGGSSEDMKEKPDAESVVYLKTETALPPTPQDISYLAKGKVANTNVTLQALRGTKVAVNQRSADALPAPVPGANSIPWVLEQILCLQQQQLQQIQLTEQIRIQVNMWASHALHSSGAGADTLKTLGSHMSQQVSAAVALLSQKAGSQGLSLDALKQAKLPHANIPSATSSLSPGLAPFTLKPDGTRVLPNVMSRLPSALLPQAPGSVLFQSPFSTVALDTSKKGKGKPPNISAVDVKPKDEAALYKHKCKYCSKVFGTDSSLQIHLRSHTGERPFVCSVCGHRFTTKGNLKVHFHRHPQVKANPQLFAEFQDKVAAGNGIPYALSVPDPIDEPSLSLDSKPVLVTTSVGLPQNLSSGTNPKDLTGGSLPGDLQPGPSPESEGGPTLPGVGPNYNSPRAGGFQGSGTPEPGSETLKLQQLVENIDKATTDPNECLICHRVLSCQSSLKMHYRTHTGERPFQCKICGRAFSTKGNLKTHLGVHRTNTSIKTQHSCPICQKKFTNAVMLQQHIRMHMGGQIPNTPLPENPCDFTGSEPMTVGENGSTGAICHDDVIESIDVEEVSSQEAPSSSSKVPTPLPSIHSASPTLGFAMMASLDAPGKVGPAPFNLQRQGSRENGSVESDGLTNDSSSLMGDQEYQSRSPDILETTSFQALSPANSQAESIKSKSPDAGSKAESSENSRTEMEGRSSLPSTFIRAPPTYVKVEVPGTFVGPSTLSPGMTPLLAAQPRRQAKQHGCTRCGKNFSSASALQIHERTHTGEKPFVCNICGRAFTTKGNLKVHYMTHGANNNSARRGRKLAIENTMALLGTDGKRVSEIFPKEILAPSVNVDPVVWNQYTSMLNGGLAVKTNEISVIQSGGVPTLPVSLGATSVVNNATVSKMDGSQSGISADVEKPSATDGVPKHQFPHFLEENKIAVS
Technique: universal PBM
Form: double-stranded DNA, one strand shown
Matrix: in vitro
Tested at: 600 nM
Setting: 8-mer, flanks averaged, mean of replicates
Reading: higher = stronger binding
`AAAAGTAG` has an E-score of 0.202.
With `CGTCGAAC` the E-score was -0.192.
`CCTGTCTA` gave an E-score of -0.0225.
With `CATTTTAC` the E-score was 0.301.
`CCGTTGGC` has an E-score of -0.213.

Study 3
Molecule: PhoQ, residues 284 288 289 292 302 303 GNNTDL
Technique: Sort-seq
Measured: YFP reporter
Matrix: E. coli
Setting: PhoQ-PhoP variant library
Added: 10 µM Mg2+
Reference: high Mg2+ state
Reading: higher = stronger signaling
For PhoP, residues 12 14 15 18 19 QQAYL (Escherichia coli, UniProt P23836): fold induction read 5.47.
It gave 1.8 for fold induction (PhoP, residues 12 14 15 18 19 LFHKL (Escherichia coli, UniProt P23836)).
The fold induction was 2.43 (PhoP, residues 12 14 15 18 19 GMGLL (Escherichia coli, UniProt P23836)).

Further values, each from its own experiment
Technique: protein-binding microarray
Form: double-stranded DNA, one strand shown
Matrix: in vitro
Setting: 60-bp whole probe
Added: salmon DNA 0.4 mg/ml
Reference: random background probes
Reading: higher = stronger binding
IRF7 S471D/S472D/S475D/S476D/S477D/S483D/S484D/S487D full length, phosphomimetic: Interferon regulatory factor 7, full length, phosphomimetic (IRF7, Homo sapiens, UniProt Q92985, residues 1-503, S471D/S472D/S475D/S476D/S477D/S483D/S484D/S487D)
UniProt Q92985, sequence (whole entry, unmodified, looked up): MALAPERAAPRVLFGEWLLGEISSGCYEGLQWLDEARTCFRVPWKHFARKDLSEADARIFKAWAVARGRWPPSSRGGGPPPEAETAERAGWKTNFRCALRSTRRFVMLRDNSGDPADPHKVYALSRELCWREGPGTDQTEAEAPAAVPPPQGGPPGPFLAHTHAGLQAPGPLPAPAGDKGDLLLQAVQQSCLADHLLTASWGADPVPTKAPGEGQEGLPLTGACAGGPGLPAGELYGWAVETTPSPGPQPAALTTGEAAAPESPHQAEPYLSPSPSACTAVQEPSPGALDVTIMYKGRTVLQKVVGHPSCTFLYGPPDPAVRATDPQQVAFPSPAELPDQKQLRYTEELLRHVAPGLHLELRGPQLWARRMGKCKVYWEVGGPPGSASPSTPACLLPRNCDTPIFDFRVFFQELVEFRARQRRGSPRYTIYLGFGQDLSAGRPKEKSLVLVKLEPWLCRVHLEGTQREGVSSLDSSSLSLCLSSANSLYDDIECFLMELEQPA
IRF3 S386D/S396D/S398D/S402D/T404D/S405D full length, phosphomimetic: Interferon regulatory factor 3, full length, phosphomimetic (IRF3, Homo sapiens, UniProt Q14653, residues 1-427, S386D/S396D/S398D/S402D/T404D/S405D)
UniProt Q14653, sequence (whole entry, unmodified, looked up): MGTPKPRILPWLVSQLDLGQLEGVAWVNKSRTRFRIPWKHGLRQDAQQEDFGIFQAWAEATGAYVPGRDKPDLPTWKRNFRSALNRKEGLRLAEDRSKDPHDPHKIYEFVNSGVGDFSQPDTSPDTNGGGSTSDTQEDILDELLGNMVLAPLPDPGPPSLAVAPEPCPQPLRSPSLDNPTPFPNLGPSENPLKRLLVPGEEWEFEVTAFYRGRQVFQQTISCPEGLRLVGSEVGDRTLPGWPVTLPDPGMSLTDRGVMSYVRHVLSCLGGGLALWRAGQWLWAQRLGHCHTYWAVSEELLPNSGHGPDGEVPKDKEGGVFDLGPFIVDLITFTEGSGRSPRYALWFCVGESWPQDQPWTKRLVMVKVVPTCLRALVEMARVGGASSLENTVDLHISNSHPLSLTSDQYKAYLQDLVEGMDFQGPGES
`GCCTAGCACGACGGTATCGCGTTTCGGGACGTGCTAGTCTTGATTCGCTTGACGCTGCTG` — result for “fitted relative affinity”: 1.13 z-score (IRF7 S471D/S472D/S475D/S476D/S477D/S483D/S484D/S487D full length, phosphomimetic; 2200 nM top).
`GCCTAGCACATATATATGAATATATATTAGTGCTAGGTCTTGATTCGCTTGACGCTGCTG` — result for “fitted relative affinity”: 0.591 z-score (IRF3 S386D/S396D/S398D/S402D/T404D/S405D full length, phosphomimetic; 2540 nM top).
Under “fitted relative affinity”, `GCCTAGCACGACGATCACAGACTGGAGACGTGCTAGGTCTTGATTCGCTTGACGCTGCTG` is recorded as 0.0578 z-score (IRF3 S386D/S396D/S398D/S402D/T404D/S405D full length, phosphomimetic; 2540 nM top).
`GCCTAGCACTCAAATGATTGGTTGAAACTGTGCTAGGTCTTGATTCGCTTGACGCTGCTG`: “fitted relative affinity” -0.274 z-score (IRF7 S471D/S472D/S475D/S476D/S477D/S483D/S484D/S487D full length, phosphomimetic; 2200 nM top).
